Published values from different studies.
Every numbered part comes from another study and shows a few of its results, in no order. Positions count from the first letter of the parent shown.

Sample 1
Target: CCNE1, cyclin fold, Cln2 fusion (human)
Method: yeast growth competition, sequencing
Matrix: yeast
Setting: weak parent motif
Baseline: not given
Reading: higher = stronger binding
Starting sequence: AKAP12 docking peptide (human); GSPLKKLFTSTGL
Variant | normalised enrichment score
GSPLAKLFTSTGL [K5A] | -0.254
GSPLKKAFTSTGL [L7A] | -0.253
GSPLKKLFTATGL [S10A] | 0.779
GSALKKLFTSTGL [P3A] | 1.04
GSPLRKLLTSTGL [K5R F8L] | 0.616
GSPLKALFTSTGL [K6A] | 1
GSPLKKLFTSTAL [G12A] | -0.145

Sample 2
Target: NFE2, bZIP domain (human)
Method: DHFR protein complementation
Matrix: yeast
Setting: single substitutions, most at no-binding floor
Baseline: wild-type JUN-FOS pair
Reading: higher = stronger binding
Starting sequence: JUN, bZIP domain (human); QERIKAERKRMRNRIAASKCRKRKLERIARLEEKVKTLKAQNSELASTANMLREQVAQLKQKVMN; partner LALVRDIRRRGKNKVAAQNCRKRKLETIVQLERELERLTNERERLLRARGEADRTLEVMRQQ
Variant | binding fitness
S43Q | -1.47 natural log
K36D | -1.42 natural log
E33I | -1.58 natural log
R53T | -1.46 natural log
R30F | -1.3 natural log
V35A | -1.44 natural log
L59G | -1.5 natural log
I28C | -1.56 natural log
S43T | -1.3 natural log
E33H | -1.5 natural log
M51L | -1.31 natural log

Sample 3
Target: RNA binding protein fox-1 homolog 2, RRM domain, GST-SBP tag (RBFOX2, Homo sapiens, UniProt O43251-10, residues 100-194)
Method: RNA Bind-n-Seq
Molecule type: RNA
Matrix: in vitro
Concentration: 365 nM
Setting: natural RNA segment, single round, ends assumed
Baseline: no-protein control
Reading: higher = stronger binding
All sequences stand within: GGGAGUUCUACAGUCCGACGAUC … UGGAAUUCUCGGGUGCCAA
Construct (chain): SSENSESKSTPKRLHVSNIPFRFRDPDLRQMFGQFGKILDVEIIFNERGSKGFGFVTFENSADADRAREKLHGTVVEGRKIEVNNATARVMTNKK
Oligonucleotide | RBNS enrichment (R)
AAACAAAUCUUGUUGCUGAUUUGUCCAUUUCUUUCCCUGCACUUUGUUACAUCUGGGAUACAGUCUAACUCAUCUGACUUAAUAUGCAUUUAAAAAAAUGCCAUAACUAU | 0.44
AUGCUGGUGUUUGAUUUCCUGUGUUGUUGCCUCAGCGUUAAGGGCAUUUCCGUUUGCAGUUCUACUAAAGACACUCUGAGAAAUAUUCCGAGUUUCGUAUUAACCUUUCC | 0.901
UGUGCAGUCUCACCAUUUGCAUCACUGAGGAUGAAACUGACUUUUGUCUUUUGGAGAAAAAAAACUGUACUGCUUGUUCAAGAGGGCUGUGAUUAAAAUCUUUAAGCAUU | 0.563
UCUAGCUUCAUGCUGGGUCAAGGUGGUUUACCUGGAUGACCCCCCUCCCCCGCCCUCGCCCAUCCCAGGUGUGUGCCACACCCAGUAUUUCUUUCAGGUCUCAACUGUGG | 0.26
CCCCUGACAAUCCUGAGGCUUCAUCAGGAGCUAGAGCCAUUUAACAUUUCCUCUUUCCAAGACCAACCUACAAUUUUCCCUUGAUAACCAUAUAAAUUCUGAUUUAAGGU | 0.739
UAUCCUACAGAAAUUUAAGUAGCUACUGCUUCUCCUGAAAGCCCAAGUUGAAAAUGGGACCACAGGGGCACAGGGCUACUGACCCUCACAGGGCAUGCCAGCGUUAACAC | 0.428
GACUCCGUCCCCAAGGGCCAGGCCGGACUGUCCAGACCUGCAGGCUCCGGCCAGAAGCGCCGCUCCGGAAGCGUCCUGCCGCCUCUCGCUUUGCCAGCCUGGGAGCCGCG | 0.365
UGUGGGAGAGUCAGCCCUGCCCCUCCUCUCCCAUGUGACCCUGUCAUAGUUUGCAGUGUCCUAGGUAGCACUUGGGGAGCCAGGUGCAUUCAGGGUCAGUAGGGAGGACA | 0.904
AUAUAAUUACUCCCAUUUUGCAGAUGAAGUAACUGAGGCUUAGAAAGGUUAAUAGCACCGGGGAACAAUUUCUCUGGGUGAGAAUUGGGACUCUGUUGCUGGUCUUCUCA | 0.521
UAGAAUUAAUGUCUUACUAAAGUGCCACAAUUAUUUUUUAAGUAGCUCAGUACAAAUUAAUUUAAGUAAAAAACGUUUUAGAAUUUCAAAUAUCCUAAAAUAGGAAAUAC | 0.629
GACUUCUCAGUGUUGGUGCUGUGUCUGUUAGAGCCUUAGAGCAAGUUAAGCACUUCCUUGGUGUGGGUAAAGAAUAAAGGGGAAAGAAACUACUUUAGAGCCUCUUUUUC | 0.777
AAAAAAAAAGAAAAGCCAAGCAAACCAAUGGUGAUCCUCUAUUUUGUGAUGAUGCUGUGACAAUAAGUUUGAACCUUUUUUUUUGAAACAGCAGUCCCAGUAUUCUCAGA | 0.347

Sample 4
Target: Phosphate system positive regulatory protein PHO4, full length, GST-tagged (PHO4, Saccharomyces cerevisiae, UniProt P07270, residues 1-312)
Method: competition protein-binding microarray
Molecule type: double-stranded DNA, one strand shown
Matrix: in vitro
Concentration: 2 µM
Setting: whole 60-bp probe, lowest competitor level
With: Cbf1 competitor, 0.05 µM
Reading: higher = stronger binding
All sequences stand within: … GTCTTGATTCGCTTGACGCTGCTG
Target sequence (chain): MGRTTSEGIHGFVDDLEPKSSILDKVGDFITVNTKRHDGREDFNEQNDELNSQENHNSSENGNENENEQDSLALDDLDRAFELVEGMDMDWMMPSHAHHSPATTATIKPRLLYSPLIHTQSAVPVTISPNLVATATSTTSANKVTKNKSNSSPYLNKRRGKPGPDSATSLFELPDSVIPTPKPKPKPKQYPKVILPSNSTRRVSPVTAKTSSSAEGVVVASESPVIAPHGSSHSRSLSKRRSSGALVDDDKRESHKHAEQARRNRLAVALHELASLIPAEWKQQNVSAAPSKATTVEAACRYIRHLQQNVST
Oligonucleotide | fluorescence intensity
TGCGCAACAACTTGAGGGGTGGGTGTATGTCTAGAA | 5020 a.u.
CATACCCAACCTTACCACGTGTTTTAAGATATTTGT | 19100 a.u.
ATAAAAGAATGCCATCACGTGTTTCCAATCCATTCG | 15600 a.u.
CTAACGAAGGTTTGCAGCGTGGGTGACAAGCCAAGT | 7240 a.u.
AGGCGAATTCTTGTCATCGTGCCGACAGCAAGCCAT | 8660 a.u.
TTTCAAAAAAGGAACTTATCTCTGACAATTTTCGAC | 2790 a.u.
GTCTTAATAGAAGGACACGTGGAATCTAAGGACGGA | 17800 a.u.
ATCTTTCCGTGGAGTATCGTGACGGGACTAATGATC | 6470 a.u.
AAAGCGGTAATTTGCTTAGTGGGTGCAGATATCTAT | 3740 a.u.
CGTCCTAGTGATTGGGGAGTGGGTGCCATGAGGAAG | 6980 a.u.
TCAATTCTCCAGTACGGCGTGGGTACAGAACATGGC | 10100 a.u.
TCTTCAGCCTTGCCCAACGTGGAGTCGACTACGCCC | 11000 a.u.
TATTGTGTCGCCTCGACCGTGATGGTTAGTTCCTAT | 4460 a.u.
ATCCCTGTCGTTACGGTCGTGCCAGTTACACTGGGA | 8020 a.u.
CGAGCCTCTGAAAAGCACGCTCTAATAATTTTACAT | 9050 a.u.
AAGGTGGAACGATTCCACGTGGATTGTCTAAACTGT | 14800 a.u.
TCAGCTCTTAGATGTAATGTGACGGCAGCCATTTTT | 3810 a.u.
GCATTGCATTGCTGGCACGTTTTTGTGCAGCATGAA | 14900 a.u.
GCCGGACCAGCTTGGCCCGTGGAATTGTCTATATTG | 5260 a.u.
CAGGCGTCCACCGCTCCCGTGTCGGTGTAACCAAGG | 4990 a.u.
GTCTTGTCTCATTGTTTAGTGGGTGTCCCCACTTCA | 4830 a.u.
ACCAAAAGACCAGAGCTCGTGATGGTCGGCTGCACC | 7340 a.u.

Sample 5
Target: Ras GTPase-activating protein-binding protein 1, full length (G3BP1, Homo sapiens, UniProt Q13283)
UniProt Q13283, sequence (whole entry, looked up): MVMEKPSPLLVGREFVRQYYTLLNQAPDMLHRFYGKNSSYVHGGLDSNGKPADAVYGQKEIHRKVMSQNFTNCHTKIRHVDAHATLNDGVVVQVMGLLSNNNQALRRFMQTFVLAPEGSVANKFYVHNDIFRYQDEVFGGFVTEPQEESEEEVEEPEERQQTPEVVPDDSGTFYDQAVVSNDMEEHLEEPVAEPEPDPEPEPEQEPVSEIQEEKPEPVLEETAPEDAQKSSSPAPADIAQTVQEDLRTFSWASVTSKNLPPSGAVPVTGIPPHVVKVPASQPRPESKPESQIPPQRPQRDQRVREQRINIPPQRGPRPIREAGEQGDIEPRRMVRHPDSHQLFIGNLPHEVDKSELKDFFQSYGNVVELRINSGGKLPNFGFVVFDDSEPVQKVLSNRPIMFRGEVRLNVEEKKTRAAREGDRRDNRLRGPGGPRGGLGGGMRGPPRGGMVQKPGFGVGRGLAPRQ
Method: RNA Bind-n-Seq
Molecule type: RNA
Matrix: in vitro
Concentration: 200 nM
Setting: whole 134-nt RNA, ends assumed
With: 150 mM KCl
Baseline: input library
Reading: higher = stronger binding
All sequences stand within: GGGAGUUCUACAGUCCGACGAUC … UGGAAUUCUCGGGUGUCAAGG
Oligonucleotide | log2 enrichment
CACAGACAACACGCACCCACACAGACACAGAGGGAAGGGAUUGGGAUGGGGACAGGGUGCACAGCAGGGCGGGGUAGGACCCCAGCCCCU | 1.91
AGUCCUGUGCUACACAUCGUAUGUACCGAAUCGGGGAAAAAGGGGUGGGGAAAGGGGAAAGUAUUAUGUUACGCCGUUCGGAUCUGCACU | 0.186
GCAGGAAGUAAAAACAAAUGGAAAUGCUUCGGAUAGUGGCAGGGGUCGGGGUUGCUAAGGAAAGGGUGGGAUGGGAGUGGGUAAAGAGUU | 1.13
ACCAUGCAGGUGGGCAUCUUUGGGAAGUGGGGCAAGGGGGGGAUAGGGAGGGGGGUAACCCUUUGGGAACAGGUGGUCCCAGGUCGUUUC | 1.31
CUCAAGUCCUGUGCUACACAUCGUAUGUACCGAAUCGGCCCGGCCCGGCCCGGGAAAGUAUUAUGUUACGCCGUUCGGAUCUGCACUUCC | -0.308
AAGUCCUGUGCUACACAUCGUAUGUACCGAAUCGGGGUUUUGGUUUUGGGUUUUGGGAAAGUAUUAUGUUACGCCGUUCGGAUCUGCACU | -0.808
CACUGACAACACGCACCCACACAGACACAGAGGGAAGGGGUUGGGAUGGGGACAGGGUGCACAGCAGGGCGGGGUAGGACCCCAGCCCCU | 1.73
CUGUGCUACACAUCGUAUGUACCGAAUCGGGUUUUUUUGGUUUUUUUGGGUUUUUUUGGGGAAAGUAUUAUGUUACGCCGUUCGGAUCUG | -1.02
GUCCUGUGCUACACAUCGUAUGUACCGAAUCGGGGCCCCCGGCCCCCGGGGCCCCCGGGAAAGUAUUAUGUUACGCCGUUCGGAUCUGCA | -0.908
AGUCCUGUGCUACACAUCGUAUGUACCGAAUCGGAAAAAGGGAAAAAGGAAAAAGGGGAAAGUAUUAUGUUACGCCGUUCGGAUCUGCAC | -0.87
CAAGUCCUGUGCUACACAUCGUAUGUACCGAAUCGGGAGGGAAAAAAAGGGUGGGAAAGUAUUAUGUUACGCCGUUCGGAUCUGCACUUC | 0.383
CUCAAGUCCUGUGCUACACAUCGUAUGUACCGAAUCGGAAGGAAGGGGAAGGGGAAAGUAUUAUGUUACGCCGUUCGGAUCUGCACUUCC | -0.0125
CUCAAGUCCUGUGCUACACAUCGUAUGUACCGAAUCGGGAGGGAAAGGGAGGGAAAGUAUUAUGUUACGCCGUUCGGAUCUGCACUUCCA | 1.3
AGUCCUGUGCUACACAUCGUAUGUACCGAAUCGGAAAAGGGGAAAAGGGAAAAGGGGAAAGUAUUAUGUUACGCCGUUCGGAUCUGCACU | -0.165

Other studies, line by line
Molecule | target | test | test system | conditions | how to read | quantity | value
PhoQ, residues 284 288 289 292 302 303 SLSLLA | PhoP, residues 12 14 15 18 19 TQAIL (Escherichia coli, UniProt P23836) | Sort-seq, item: YFP reporter | E. coli | PhoQ-PhoP variant library, with: 10 µM Mg2+ | baseline: high Mg2+ state, higher = stronger signaling | fold induction | 55.1

Some of these lines once more (sample 2):
Variant | binding fitness
R30F | -1.3 natural log
V35A | -1.44 natural log
L59G | -1.5 natural log
I28C | -1.56 natural log
S43T | -1.3 natural log
E33H | -1.5 natural log
